Assay results from different studies.
Every numbered part comes from another study and shows a few of its results, in no order.

Series 1
Target: GDNF-inducible zinc finger protein 1, full length (GZF1, Homo sapiens, UniProt Q9H116, residues 1-711)
UniProt Q9H116, sequence (whole entry, looked up): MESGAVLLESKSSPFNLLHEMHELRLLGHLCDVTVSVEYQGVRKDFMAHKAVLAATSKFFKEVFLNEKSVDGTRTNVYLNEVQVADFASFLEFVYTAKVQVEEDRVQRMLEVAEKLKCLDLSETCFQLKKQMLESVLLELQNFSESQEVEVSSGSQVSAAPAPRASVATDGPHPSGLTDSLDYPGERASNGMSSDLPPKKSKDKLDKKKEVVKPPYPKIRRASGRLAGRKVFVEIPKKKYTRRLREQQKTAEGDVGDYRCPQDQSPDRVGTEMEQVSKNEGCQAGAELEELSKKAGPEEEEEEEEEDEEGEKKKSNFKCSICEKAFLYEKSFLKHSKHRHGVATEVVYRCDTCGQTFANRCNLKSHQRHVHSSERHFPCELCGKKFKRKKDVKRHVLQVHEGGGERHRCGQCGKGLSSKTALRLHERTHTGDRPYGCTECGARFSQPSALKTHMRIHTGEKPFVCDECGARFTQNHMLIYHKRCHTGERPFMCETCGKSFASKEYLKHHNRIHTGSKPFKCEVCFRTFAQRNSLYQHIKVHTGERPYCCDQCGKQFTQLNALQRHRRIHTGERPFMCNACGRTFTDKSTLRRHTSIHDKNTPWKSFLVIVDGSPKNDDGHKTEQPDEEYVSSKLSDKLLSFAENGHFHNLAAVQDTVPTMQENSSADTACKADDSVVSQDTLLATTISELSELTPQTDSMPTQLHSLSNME
Technique: protein-binding microarray
Form: hairpin DNA
Sample: in vitro
Concentration: not given
Notes: whole hairpin DNA, median over replicate spots
Baseline: not given
Reading: higher = stronger binding
Constant ends, left off below: GAGGCCA … TGGCCTCACACTC
Sequence | median fluorescence [a.u.]
TTCCGGTAATGCCTCCTGGCATTACCGGAA (5mC at 10) | 531
ATACGGTAATGCCTCCTGGCATTACCGTAT | 632
TTACGCTAATGCCTCCTGGCATTAGCGTAA (5mC at 13) | 406
TTACGGTATTGCCTCCTGGCAATACCGTAA | 532
TTCGGGTAATGCCTCCTGGCATTACCCGAA (5mC at 10) | 502
TTACTGTAATGCCTCCTGGCATTACAGTAA | 355
TTACGGCAATGCCTCCTGGCATTGCCGTAA (5mC at 14) | 504
TGACGGTAATGCCTCCTGGCATTACCGTCA (5mC at 36) | 642
CTACGGTAATGCCTCCTGGCATTACCGTAG (5mC at 8) | 677
TTACGGTCGTGCCTCCTGGCACGACCGTAA | 602
TAACGGTAATGCCTCCTGGCATTACCGTTA | 533
TTACGGTAATGCCTCCTGGCATTACCGTAA | 714
TTACGGCGATGCCTCCTGGCATCGCCGTAA (5mC at 14 30) | 531
TCGCGGTAATGCCTCCTGGCATTACCGCGA (5mC at 35) | 730
TGACGGTAATGCCTCCTGGCATTACCGTCA | 641
CGACGGTAATGCCTCCTGGCATTACCGTCG (5mC at 36) | 723
TTACGCGAATGCCTCCTGGCATTCGCGTAA (5mC at 31) | 532

Series 2
Target: Ras GTPase-activating protein-binding protein 1, RRM domain (G3BP1, Homo sapiens, UniProt Q13283)
UniProt Q13283, sequence (whole entry, looked up): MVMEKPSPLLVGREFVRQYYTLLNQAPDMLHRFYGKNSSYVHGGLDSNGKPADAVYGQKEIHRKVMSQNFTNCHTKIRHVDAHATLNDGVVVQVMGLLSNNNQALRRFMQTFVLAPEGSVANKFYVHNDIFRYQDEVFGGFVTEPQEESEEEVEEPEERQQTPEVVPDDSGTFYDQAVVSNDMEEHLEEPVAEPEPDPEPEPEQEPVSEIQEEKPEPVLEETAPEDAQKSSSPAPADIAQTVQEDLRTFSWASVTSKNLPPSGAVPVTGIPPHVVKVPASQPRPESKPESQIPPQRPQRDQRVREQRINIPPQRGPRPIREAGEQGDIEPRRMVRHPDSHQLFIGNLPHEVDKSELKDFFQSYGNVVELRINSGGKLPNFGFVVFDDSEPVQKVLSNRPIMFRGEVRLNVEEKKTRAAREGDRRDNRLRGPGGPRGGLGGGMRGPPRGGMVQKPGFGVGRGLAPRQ
Technique: RNA Bind-n-Seq
Form: RNA
Sample: in vitro
Concentration: 1 µM
Notes: whole 134-nt RNA, ends assumed
Together with: 150 mM KCl
Baseline: input library
Reading: higher = stronger binding
Sequence | log2 enrichment
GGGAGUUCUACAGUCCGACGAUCUUUGCUGUUGUUAACCAUCAAGGGACCUUGGAGAGUGGCCACUACACCAGCUUUAUCCGGCAGCACAAAGACCAGUGGUUCAAGUGUGACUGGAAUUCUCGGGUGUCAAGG | -0.0635
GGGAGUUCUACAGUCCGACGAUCCACAGACAACACGCACCCACACAGACACAGAGGGAAGGGGUAAAGAUGGGGACAGGGUGCACAGCAGGGCGGGGUAGGACCCCAGCCCCUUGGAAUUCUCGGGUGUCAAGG | -0.137
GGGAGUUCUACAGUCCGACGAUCUCCUGUGCUACACAUCGUAUGUACCGAAUCGGGGAAAAAAAGGGGAAAAAGGGGUGGGGAAAGUAUUAUGUUACGCCGUUCGGAUCUGCAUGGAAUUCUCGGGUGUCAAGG | 0.835
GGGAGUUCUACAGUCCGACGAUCCAAGUCCUGUGCUACACAUCGUAUGUACCGAAUCGGGGUGGGGAAAGGGGUGGGGAAAGUAUUAUGUUACGCCGUUCGGAUCUGCACUUCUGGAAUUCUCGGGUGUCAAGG | 1.03
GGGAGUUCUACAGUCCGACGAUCCACAGUCAACACGCACCCACACAGACACAGAGGGAAGGGGUUGGGAUGGGGACAGGGUGCACAGCAGGGCGGGGUAGGACCCCAGCCCCUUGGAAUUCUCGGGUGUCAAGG | -0.114
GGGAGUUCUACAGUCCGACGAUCGUCCUGUGCUACACAUCGUAUGUACCGAAUCGGUUUUUGGGGUUUUUGGUUUUUGGGGAAAGUAUUAUGUUACGCCGUUCGGAUCUGCACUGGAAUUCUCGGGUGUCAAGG | -0.237
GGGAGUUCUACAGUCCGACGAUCUCAAGUCCUGUGCUACACAUCGUAUGUACCGAAUCGGUUUUUGGAAAAAGGUGGAAAGUAUUAUGUUACGCCGUUCGGAUCUGCACUUCCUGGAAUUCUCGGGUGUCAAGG | -0.198
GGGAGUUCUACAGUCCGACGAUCUGUGCUACACAUCGUAUGUACCGAAUCGGGGAAAAAAAGGGGAAAAAAAGGGGAAAAAAAGGGAAAGUAUUAUGUUACGCCGUUCGGAUCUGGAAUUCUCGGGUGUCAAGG | 0.219
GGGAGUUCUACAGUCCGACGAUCUUCCCUGGUGUGAUUCCGUCCUGCGCGGUUGUUCUCUGGAGCAGCGUUCUUUUAUCUCCGUCCGCCUUCUCUCCUACCUAAGUGCGUGCCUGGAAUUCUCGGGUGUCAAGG | 0.00242
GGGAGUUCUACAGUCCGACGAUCUGGGAGGUGGAUUUUGUUUAUUUUUUUAGCUCAUUUCCAGGGGUGGGAAUUUUUUUUUCAUAUGUGUCAUGAAUAAAGUUGUUUUUGAAAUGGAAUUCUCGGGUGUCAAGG | 2.73
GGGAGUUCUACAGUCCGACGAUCGCAGGAAGUAAAAACAAAUGGAAAUGCUUCGGAUAGUGGCUGGGGUGGGGGUUGCUAAGGAAAGGGUGGGAUGGGAGUGGGUAAAGAGUUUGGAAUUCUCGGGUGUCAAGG | 0.745
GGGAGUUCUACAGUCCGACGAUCAGUCCUGUGCUACACAUCGUAUGUACCGAAUCGGGGUUUUUGGGUUUUUGGUUUUUGGAAAGUAUUAUGUUACGCCGUUCGGAUCUGCACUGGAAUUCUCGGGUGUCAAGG | -0.321
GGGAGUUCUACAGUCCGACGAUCGCAGGAAGUAAAAACAAAUGGAAAUACUUCGGAUAGUGGCAGGGGUGGGGGUUGCUAAGGAAAGGGUGGGAUGGGAGUGGGUAAAGAGUUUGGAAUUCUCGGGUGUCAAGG | 1.38
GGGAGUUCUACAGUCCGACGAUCGCAGGAAGUAAAAACAAAUGGAAAUGCUUCGGAUAGUGGCAGGGCUGGGGGUUGCUAAGGAAAGGGUGGGAUGGGAGUGGGUAAAGAGUUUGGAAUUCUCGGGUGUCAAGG | 1.33

Series 3
Target: RING finger protein unkempt homolog, zinc fingers 1-6, GST-SBP tag (UNK, Homo sapiens, UniProt Q9C0B0, residues 30-357)
Technique: RNA Bind-n-Seq
Form: RNA
Sample: in vitro
Concentration: not given
Notes: RNA with constant flanks, human-mouse chimeric sites, ends assumed
Baseline: input RNA pool
Reading: higher = stronger binding
Construct (chain): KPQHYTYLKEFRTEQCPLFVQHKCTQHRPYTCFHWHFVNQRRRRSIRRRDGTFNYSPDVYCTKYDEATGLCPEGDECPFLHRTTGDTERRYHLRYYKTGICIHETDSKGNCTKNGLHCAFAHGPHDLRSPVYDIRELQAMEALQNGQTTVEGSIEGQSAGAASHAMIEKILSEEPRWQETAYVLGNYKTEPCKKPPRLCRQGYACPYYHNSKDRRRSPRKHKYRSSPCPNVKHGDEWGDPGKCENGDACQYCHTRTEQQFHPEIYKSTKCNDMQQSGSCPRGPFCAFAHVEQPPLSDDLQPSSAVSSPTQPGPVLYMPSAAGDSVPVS
Sequence | bound/input enrichment [ratio]
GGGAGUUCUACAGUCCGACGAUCGAUAAGAAAAACUUGUUGGAGACCCGCUUGCAUGUCACUGGUAGAGACCUGAGGUGUCAAAUAGCUGAAACUUUCGGACUUCAAGAAAAUUACAUCAAGAUCGUAAUAAAUAAGAAACAGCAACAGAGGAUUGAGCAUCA | 0.301
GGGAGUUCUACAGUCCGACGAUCGUAGCUGGGACUACAGAAAUGCUGGUAAUUUCAGUCACUUGCUGAUGACUUCUGAUGUCCCAGCAAAUGUUGGCAUUCACUGCAAUAGAGAAGAUACACUCGCAAGGCCACGUCUAAGGUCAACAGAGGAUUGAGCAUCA | 0.152
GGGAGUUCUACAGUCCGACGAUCCACACACUCUUCUGCGGCACCCUCAUUUUGCAGGCCCGGGCCUAUGUGGGACCCCGUGUCCUGGCAGUGGUGACCCGCACAGGGUUCUGCACGGCAAAAGGGGGCCUGGUGAGCUCCAUCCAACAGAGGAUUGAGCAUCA | 0.137
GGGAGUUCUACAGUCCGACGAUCUCCCUGUUGCUGAAUAAAUGGCUUGUAAAGAAGUUUUUCCAAGCUGUACCCAUGUACGUUAUUAUAGUUGCUGCAAAAUGUUCUUCCUGAUAUUGAUUUUAUUUGUUAACUGAAGGUCUCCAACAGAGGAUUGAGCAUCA | 0.444
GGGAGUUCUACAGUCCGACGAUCCGCUGGCCCAAGCUGAUGGACUCUGAUCUUGAUCUCUUCUCAGGCACGUGUGCCUUCUCUUAGUCCCUGUUUUCGGGAUGUUAUGAACAGUAUCAUGGUGGUUUGAAAGCACCAGCUUUGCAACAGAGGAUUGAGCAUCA | 0.0922
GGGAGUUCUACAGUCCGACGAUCGGUGGGGUGGUCAUUGCCGUUUGAGCUGCUGAUUUUCAUGAGUCGCCCAUUCAGAACUCGUGUAGGGUUGACAAUGUAAGGGGUGGGGGGAUCCAGCUUAUUCUUUUAUUUUCAAGUCCACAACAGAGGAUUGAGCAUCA | 0.433
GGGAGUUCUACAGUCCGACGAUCAAAGUGAUGACUAUGUUUGUCCAACGACAGGUGUUUGCGGAGAGCAAAGAUGAGAUUGCGUUAGUCCUGUUUGGUACAGAUGGCACUGAUAAUGCCCUUGCUGGCAAGGACCAGUAUCAGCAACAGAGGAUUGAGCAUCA | 0.147
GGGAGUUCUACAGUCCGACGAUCGCGGCAGAAUCAUGGUGGACAUAAUGCAGCUCCCCAAAGCGCGCGUCAACGCCAGCAUGUUACCACAGUAUAUCGACCGGCCCGUGUGCUUCGUGGGGAGGCUGGAAAAGAUUCAUCCCACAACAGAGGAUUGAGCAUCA | 0.138
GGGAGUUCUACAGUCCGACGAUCUUCAAAGAAAAGGGCAGCUGUGUCAUUUCAUAAGUAAAACUGCAUCCUAAGUGGAAGGUUCUUUUGUUUAAUUUUCCCCCAAAUGAAGCCAAAGUGUGUGUUGAAGAACUGAGAAAAAAUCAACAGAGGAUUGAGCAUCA | 0.322
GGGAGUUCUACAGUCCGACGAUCAAAGAAUGGAUAGAGUGUGCACACGGGAUCGGUGGGACCCGGGCGAAAAAGGAGUGCAAGAUAGAGUUCGAUGACUUCGAAGAGUGCUUGCUUCGGUAGAAAACGAUGAGGCGAAUGCAUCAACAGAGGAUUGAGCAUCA | 0.775
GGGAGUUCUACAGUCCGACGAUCAACUUCGUGCAUCGGUUUCCUUUUGUAGCUGUUUCAAUUGGCUUCCUUGUGAAUAAAGAGAUGGAGUUUGGAAUUGUGUACAGCUGUGUGGAAGAUAAGAUGUACACUGCCAGAAAAGGGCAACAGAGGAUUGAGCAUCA | 0.287

Series 4
Target: Prothrombin, mature alpha-thrombin (F2, Homo sapiens, UniProt P00734)
Technique: aptamer microarray, sandwich
Form: DNA with 2'F-ANA
Sample: in vitro
Concentration: 200 nM
Notes: whole 15-mer aptamer, many near background
Together with: Cy3 exosite-II aptamer, 400 nM
Reading: higher = stronger binding
Sequence: GGTTGGTGTGGTTGG
Modification | mean fluorescence intensity [a.u.]
2'F-ANA at 1 2 5 9 11 12 14 15 | 47.3
2'F-ANA at 1 6 9 13 14 | 47.5
2'F-ANA at 3 5 7 10 15 | 53.5
2'F-ANA at 2 3 5 7 10 12 15 | 62.4
2'F-ANA at 1 5 6 7 9 11 14 15 | 46.1
2'F-ANA at 3 4 7 8 9 14 15 | 339
2'F-ANA at 1 2 3 5 6 12 13 15 | 81.8
2'F-ANA at 1 2 3 6 7 9 10 12 15 | 86.4
2'F-ANA at 1 2 5 6 7 9 10 12 | 50.5
2'F-ANA at 4 5 6 7 8 9 11 14 | 59.3
2'F-ANA at 1 2 5 6 7 9 14 15 | 43.1
2'F-ANA at 1 2 3 4 6 9 10 11 | 63.6
2'F-ANA at 3 4 5 6 8 11 12 14 | 53.1
2'F-ANA at 1 2 4 5 6 7 8 11 14 | 128
2'F-ANA at 2 5 7 9 11 13 | 52.1
2'F-ANA at 1 2 5 6 7 8 10 11 12 13 14 15 | 53.6
2'F-ANA at 2 4 5 9 10 12 14 | 51.7
2'F-ANA at 2 4 5 6 8 12 15 | 188
2'F-ANA at 1 3 6 7 9 11 14 15 | 73.9
2'F-ANA at 2 3 4 5 6 7 9 10 12 13 | 54.3

Some of these lines once more (series 4):
Modification | mean fluorescence intensity [a.u.]
2'F-ANA at 3 5 7 10 15 | 53.5
2'F-ANA at 2 3 5 7 10 12 15 | 62.4
2'F-ANA at 1 5 6 7 9 11 14 15 | 46.1
2'F-ANA at 3 4 7 8 9 14 15 | 339
2'F-ANA at 1 2 3 5 6 12 13 15 | 81.8
2'F-ANA at 1 2 3 6 7 9 10 12 15 | 86.4
2'F-ANA at 1 2 5 6 7 9 10 12 | 50.5
2'F-ANA at 4 5 6 7 8 9 11 14 | 59.3
2'F-ANA at 1 2 5 6 7 9 14 15 | 43.1
2'F-ANA at 1 2 3 4 6 9 10 11 | 63.6
